Measurements collected from several papers.
Parts stem from different laboratories: compare values within a part only. “And” joins repeats or separate records; there may be more than shown.
UniProt P00519, sequence (whole entry, unmodified, looked up): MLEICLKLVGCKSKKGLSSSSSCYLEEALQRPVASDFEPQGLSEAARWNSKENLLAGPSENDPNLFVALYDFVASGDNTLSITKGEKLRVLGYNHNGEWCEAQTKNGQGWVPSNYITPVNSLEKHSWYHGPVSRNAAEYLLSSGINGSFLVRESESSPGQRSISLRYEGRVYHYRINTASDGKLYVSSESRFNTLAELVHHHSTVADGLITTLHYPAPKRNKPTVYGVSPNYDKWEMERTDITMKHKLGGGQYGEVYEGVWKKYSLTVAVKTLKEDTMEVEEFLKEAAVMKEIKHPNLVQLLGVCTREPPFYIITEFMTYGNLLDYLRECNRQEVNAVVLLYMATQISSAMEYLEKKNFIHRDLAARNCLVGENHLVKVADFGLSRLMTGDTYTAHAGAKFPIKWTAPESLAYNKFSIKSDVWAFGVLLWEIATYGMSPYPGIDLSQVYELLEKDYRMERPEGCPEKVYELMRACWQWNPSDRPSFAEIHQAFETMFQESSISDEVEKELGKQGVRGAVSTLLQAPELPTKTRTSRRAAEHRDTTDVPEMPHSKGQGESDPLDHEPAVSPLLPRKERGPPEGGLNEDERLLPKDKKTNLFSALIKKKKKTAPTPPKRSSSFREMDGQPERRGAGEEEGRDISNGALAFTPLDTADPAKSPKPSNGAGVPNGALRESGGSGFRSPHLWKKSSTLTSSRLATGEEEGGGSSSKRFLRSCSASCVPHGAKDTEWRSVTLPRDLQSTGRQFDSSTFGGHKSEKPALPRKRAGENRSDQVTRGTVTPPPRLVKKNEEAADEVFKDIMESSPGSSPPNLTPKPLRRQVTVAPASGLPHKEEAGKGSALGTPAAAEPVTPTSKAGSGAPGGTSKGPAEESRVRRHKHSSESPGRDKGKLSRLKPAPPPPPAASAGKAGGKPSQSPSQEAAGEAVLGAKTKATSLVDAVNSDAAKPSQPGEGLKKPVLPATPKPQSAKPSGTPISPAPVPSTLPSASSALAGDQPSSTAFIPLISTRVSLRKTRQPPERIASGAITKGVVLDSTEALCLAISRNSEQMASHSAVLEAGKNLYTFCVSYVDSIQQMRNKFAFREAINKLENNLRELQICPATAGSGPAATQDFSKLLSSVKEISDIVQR
UniProt Q9NWZ3, sequence (whole entry, looked up): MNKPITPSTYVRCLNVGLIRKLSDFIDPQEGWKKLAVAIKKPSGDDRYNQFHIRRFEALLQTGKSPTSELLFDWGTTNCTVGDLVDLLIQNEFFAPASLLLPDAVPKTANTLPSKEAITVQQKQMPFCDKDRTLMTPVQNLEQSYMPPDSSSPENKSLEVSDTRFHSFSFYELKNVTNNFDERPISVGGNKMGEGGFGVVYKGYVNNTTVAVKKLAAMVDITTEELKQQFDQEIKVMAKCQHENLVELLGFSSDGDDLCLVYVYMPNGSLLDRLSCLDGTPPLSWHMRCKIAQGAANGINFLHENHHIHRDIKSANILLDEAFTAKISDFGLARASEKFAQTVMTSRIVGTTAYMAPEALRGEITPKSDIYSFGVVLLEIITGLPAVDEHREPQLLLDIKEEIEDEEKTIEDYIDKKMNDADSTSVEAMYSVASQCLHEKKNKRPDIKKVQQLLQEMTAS
UniProt P52564, sequence (whole entry, looked up): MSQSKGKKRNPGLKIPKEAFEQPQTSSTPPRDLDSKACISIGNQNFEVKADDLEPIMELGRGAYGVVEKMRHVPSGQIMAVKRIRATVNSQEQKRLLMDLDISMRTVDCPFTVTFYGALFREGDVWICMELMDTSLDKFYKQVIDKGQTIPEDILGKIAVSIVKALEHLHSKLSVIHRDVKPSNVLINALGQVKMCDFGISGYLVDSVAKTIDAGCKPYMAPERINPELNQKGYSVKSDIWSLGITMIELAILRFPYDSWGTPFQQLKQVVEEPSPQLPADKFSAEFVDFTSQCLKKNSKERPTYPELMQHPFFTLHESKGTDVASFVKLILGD
UniProt P54756, sequence (whole entry, looked up): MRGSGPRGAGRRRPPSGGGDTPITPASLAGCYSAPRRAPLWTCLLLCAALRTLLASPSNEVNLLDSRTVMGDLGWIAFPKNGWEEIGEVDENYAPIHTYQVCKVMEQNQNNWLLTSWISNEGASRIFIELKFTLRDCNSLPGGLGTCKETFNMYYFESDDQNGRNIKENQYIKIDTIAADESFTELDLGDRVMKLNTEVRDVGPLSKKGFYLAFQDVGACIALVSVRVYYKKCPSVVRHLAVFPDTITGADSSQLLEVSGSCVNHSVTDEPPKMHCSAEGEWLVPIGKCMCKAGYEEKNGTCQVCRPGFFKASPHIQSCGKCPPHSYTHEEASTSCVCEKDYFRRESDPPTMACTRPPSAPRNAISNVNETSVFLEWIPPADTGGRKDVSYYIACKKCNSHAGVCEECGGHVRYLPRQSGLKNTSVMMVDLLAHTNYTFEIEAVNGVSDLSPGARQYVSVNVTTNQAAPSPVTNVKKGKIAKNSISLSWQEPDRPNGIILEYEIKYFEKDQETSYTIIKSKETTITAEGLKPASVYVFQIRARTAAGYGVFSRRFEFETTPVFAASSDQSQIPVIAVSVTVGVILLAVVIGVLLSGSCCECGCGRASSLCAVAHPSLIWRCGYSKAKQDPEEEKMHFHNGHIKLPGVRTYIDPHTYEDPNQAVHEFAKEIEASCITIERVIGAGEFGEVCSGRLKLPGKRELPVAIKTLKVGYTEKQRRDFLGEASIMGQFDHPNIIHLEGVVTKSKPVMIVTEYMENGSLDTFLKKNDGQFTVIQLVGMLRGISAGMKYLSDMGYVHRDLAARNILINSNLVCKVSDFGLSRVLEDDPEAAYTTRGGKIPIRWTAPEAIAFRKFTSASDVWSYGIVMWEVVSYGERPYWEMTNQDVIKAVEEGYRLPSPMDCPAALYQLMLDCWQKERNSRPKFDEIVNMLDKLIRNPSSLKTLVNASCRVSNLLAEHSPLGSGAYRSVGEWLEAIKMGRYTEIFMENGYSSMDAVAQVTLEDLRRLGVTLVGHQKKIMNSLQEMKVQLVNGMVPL
UniProt O14757, sequence (whole entry, looked up): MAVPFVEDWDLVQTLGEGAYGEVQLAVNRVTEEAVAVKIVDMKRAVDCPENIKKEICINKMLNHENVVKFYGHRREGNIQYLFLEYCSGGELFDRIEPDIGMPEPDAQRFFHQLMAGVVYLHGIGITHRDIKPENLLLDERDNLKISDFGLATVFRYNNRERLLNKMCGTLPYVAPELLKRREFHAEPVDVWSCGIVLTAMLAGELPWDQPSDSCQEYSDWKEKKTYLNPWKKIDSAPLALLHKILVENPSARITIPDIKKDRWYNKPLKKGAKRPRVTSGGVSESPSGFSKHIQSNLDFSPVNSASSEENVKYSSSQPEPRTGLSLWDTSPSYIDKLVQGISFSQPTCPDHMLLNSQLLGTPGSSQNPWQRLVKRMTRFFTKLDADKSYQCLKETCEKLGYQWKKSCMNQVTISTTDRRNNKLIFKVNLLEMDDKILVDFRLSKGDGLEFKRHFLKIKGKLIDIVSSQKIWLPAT
UniProt Q13976, sequence (whole entry, looked up): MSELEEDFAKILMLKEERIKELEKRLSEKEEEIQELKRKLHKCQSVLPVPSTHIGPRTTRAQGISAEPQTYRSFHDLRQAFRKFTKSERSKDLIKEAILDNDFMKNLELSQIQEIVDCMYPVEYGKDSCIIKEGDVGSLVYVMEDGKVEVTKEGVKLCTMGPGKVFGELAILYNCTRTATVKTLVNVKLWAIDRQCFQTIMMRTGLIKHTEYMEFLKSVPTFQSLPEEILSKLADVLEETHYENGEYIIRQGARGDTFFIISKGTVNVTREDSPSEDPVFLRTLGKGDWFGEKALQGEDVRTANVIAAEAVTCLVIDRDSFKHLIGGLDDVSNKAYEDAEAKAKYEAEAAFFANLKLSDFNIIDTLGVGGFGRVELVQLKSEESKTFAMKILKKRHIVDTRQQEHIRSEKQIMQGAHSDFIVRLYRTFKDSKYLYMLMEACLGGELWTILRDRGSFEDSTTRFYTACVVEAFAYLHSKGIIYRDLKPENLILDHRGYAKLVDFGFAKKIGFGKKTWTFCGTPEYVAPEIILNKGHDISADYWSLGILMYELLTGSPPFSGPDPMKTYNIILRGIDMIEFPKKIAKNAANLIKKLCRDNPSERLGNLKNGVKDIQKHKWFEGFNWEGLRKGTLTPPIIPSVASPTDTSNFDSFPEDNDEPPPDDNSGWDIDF
UniProt P11802, sequence (whole entry, looked up): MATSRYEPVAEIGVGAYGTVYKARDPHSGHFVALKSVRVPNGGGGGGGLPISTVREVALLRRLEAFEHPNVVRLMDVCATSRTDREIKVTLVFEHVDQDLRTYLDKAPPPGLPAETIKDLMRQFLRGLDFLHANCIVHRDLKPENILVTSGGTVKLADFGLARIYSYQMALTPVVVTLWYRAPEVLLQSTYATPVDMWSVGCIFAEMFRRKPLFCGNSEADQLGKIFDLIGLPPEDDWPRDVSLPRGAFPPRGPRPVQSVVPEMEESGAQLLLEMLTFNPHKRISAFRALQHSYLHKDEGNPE

Study 1
Target: Calcium/calmodulin-dependent protein kinase type II subunit alpha (CAMK2A, Homo sapiens, UniProt Q9UQM7)
UniProt Q9UQM7, sequence (whole entry, looked up): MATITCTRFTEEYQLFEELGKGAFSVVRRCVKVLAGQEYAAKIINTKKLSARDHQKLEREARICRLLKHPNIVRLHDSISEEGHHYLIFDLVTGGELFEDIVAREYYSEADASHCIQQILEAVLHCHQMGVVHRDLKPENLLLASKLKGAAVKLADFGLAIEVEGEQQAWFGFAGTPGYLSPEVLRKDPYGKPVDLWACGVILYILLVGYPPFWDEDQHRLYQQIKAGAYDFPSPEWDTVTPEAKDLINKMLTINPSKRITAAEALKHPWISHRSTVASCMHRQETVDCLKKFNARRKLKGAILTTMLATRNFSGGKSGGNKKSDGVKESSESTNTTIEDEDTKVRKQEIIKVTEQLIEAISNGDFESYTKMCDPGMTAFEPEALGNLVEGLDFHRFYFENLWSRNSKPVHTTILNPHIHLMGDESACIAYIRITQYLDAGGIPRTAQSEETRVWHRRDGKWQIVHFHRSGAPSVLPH
Observed: enzyme activity
Action: inhibitor
Tested at: 10 µM
Quantity: inhibition
C[C@H]1[C@H](C)CC[C@]2(C(=O)O)CC[C@]3(C)C(=CC[C@@H]4[C@@]5(C)C[C@@H](O)[C@H](O)[C@@](C)(CO)[C@@H]5CC[C@]43C)[C@H]12: -10%
O=C(O)c1cn[nH]c1: -34%
O=C(O[C@@H]1Cc2c(O)cc(O)cc2O[C@@H]1c1ccc(O)c(O)c1)c1cc(O)c(O)c(O)c1: -37%
Cc1cccc(C)c1OCC(=O)N[C@@H](Cc1ccccc1)[C@@H](O)C[C@H](Cc1ccccc1)NC(=O)[C@H](C(C)C)N1CCCNC1=O: -4%
CC(C)=CCc1cc2c(cc1O)oc(=O)c1c3ccc(O)cc3oc21: 1%
CNS(=O)(=O)CCc1ccc2[nH]cc(C3CCN(C)CC3)c2c1: -6%
Cn1cc(C(=O)[C@@H]2CCc3nc[nH]c3C2)c2ccccc21: -10%
CCCCCCCCCCCCCCCC[N+](C)(C)Cc1ccccc1: -10%
COc1ccc(-c2cc(=O)c3c(O)c(OC)c(OC)c(OC)c3o2)cc1OC: -24%
C[C@@H](O)[C@H]1C(=O)N2C(C(=O)O)=C([C@H]3CCCO3)S[C@H]12: -8%
C[C@@H]1O[C@@H](O[C@H]2[C@H](OC(=O)[C@]34CCC(C)(C)C[C@H]3C3=CC[C@@H]5[C@@]6(C)C[C@H](O)[C@H](O[C@@H]7O[C@H](CO)[C@@H](O)[C@H](O)[C@H]7O)[C@](CO)(C(=O)O)[C@@H]6CC[C@@]5(C)[C@]3(C)C[C@H]4O)OC[C@H](O)[C@@H]2O)[C@H](O)[C@H](O)[C@H]1O[C@@H]1OC[C@@H](O)[C@H](O[C@@H]2OC[C@](O)(CO)[C@H]2O)[C@H]1O: -5%
O=c1c(-c2ccc(O)cc2)coc2cc(O)cc(O)c12: -3%

Study 2
Structure (SMILES): CN(C)CC#Cc1ccc(OCCCc2sc(N3CCc4cccc(C(=O)Nc5nc6ccccc6s5)c4C3)nc2C(=O)O)c(F)c1
Method: competition with immobilised ligand
Tested at: 1 µM
Quantity: remaining binding
GRK3 (Homo sapiens, UniProt P35626); cell-free assay: 92%
ITK (Homo sapiens, UniProt Q08881); cell-free assay: 100%
OXSR1 (Homo sapiens, UniProt O95747); cell-free assay: 86%
MAPK15 (Homo sapiens, UniProt Q8TD08); cell-free assay: 100%
Non-receptor tyrosine-protein kinase TYK2, JH2 (TYK2, Homo sapiens, UniProt P29597); cell-free assay: 75%
TAOK2 (Homo sapiens, UniProt Q9UL54); cell-free assay: 100%
PIK3CA (Homo sapiens, UniProt P42336, C420R); cell-free assay: 100%
AXL (Homo sapiens, UniProt P30530); cell-free assay: 92%
COQ8B (Homo sapiens, UniProt Q96D53); cell-free assay: 99%
Tyrosine-protein kinase ABL1, phosphorylated (ABL1, Homo sapiens, UniProt P00519, F317L); cell-free assay: 100%
NTRK1 (Homo sapiens, UniProt P04629); cell-free assay: 100%
Tyrosine-protein kinase ABL1, phosphorylated (ABL1, Homo sapiens, UniProt P00519, E255K); binding: 85%
Ribosomal protein S6 kinase alpha-1, N-terminal kinase domain (RPS6KA1, Homo sapiens, UniProt Q15418); cell-free assay: 81%
TBK1 (Homo sapiens, UniProt Q9UHD2); cell-free assay: 100%
TSSK1B (Homo sapiens, UniProt Q9BXA7); cell-free assay: 70%
TIE1 (Homo sapiens, UniProt P35590); cell-free assay: 85%
STK26 (Homo sapiens, UniProt Q9P289); cell-free assay: 80%
RET (Homo sapiens, UniProt P07949, V804L); cell-free assay: 100%
TGFBR2 (Homo sapiens, UniProt P37173); cell-free assay: 83%
CSK (Homo sapiens, UniProt P41240); cell-free assay: 90%
NIM1K (Homo sapiens, UniProt Q8IY84); cell-free assay: 100%
Cyclin-dependent kinase 4, with cyclin D1 (CDK4, Homo sapiens, UniProt P11802); cell-free assay: 100%
IRAK4 (Homo sapiens, UniProt Q9NWZ3); cell-free assay: 100%

Study 3
Structure (SMILES): O=C(Nc1ccccc1)Nc1cccc(Oc2ccc3nccn3n2)c1
Tested at: 1 µM
Quantity: remaining binding
ACVR2B (Homo sapiens, UniProt Q13705); competitive binding panel; baseline: vehicle: 94%
STK33 (Homo sapiens, UniProt Q9BYT3); competitive binding panel; baseline: vehicle: 99%
ABL1 (Homo sapiens, UniProt P00519, Y253F); competitive binding panel; baseline: vehicle: 100%
EPHA5 (Homo sapiens, UniProt P54756); competitive binding panel; baseline: vehicle: 100%
CDK15 (Homo sapiens, UniProt Q96Q40); competitive binding; PFTAIRE2: 43%
MAP2K6 (Homo sapiens, UniProt P52564); competitive binding panel, measured: MEK6; baseline: vehicle: 100%
ABL1 (Homo sapiens, UniProt P00519, F317I); competitive binding, scanMAX: 100% and 51%
CSNK1A1L (Homo sapiens, UniProt Q8N752); competitive binding panel; baseline: vehicle: 41%
PDPK1 (Homo sapiens, UniProt O15530); competitive binding panel; baseline: vehicle: 100%
MET (Homo sapiens, UniProt P08581); competitive binding panel; baseline: vehicle: 100%
DYRK2 (Homo sapiens, UniProt Q92630); competitive binding panel; baseline: vehicle: 100%
TAOK1 (Homo sapiens, UniProt Q7L7X3); competitive binding panel; baseline: vehicle: 100%
MKNK1 (Homo sapiens, UniProt Q9BUB5); competitive binding panel; baseline: vehicle: 90%

Study 4
Compound: CNc1cc2c(Nc3cccc(Br)c3)ncnc2cn1
Observed: enzyme activity
Action: inhibitor
Tested at: 0.5 µM
Baseline: control
Quantity: remaining activity
LRRK2 (Homo sapiens, UniProt Q5S007): 67%
LYN (Homo sapiens, UniProt P07948): 63.9%
BTK (Homo sapiens, UniProt Q06187): 94.7%
NEK4 (Homo sapiens, UniProt P51957): 94.9%
IRAK4 (Homo sapiens, UniProt Q9NWZ3): 82.6%
CSNK2A1 (Homo sapiens, UniProt P68400): 94.3%
MKNK2 (Homo sapiens, UniProt Q9HBH9): 32.3%
MAP3K10 (Homo sapiens, UniProt Q02779): 90.1%
CHEK1 (Homo sapiens, UniProt O14757): 108%
WNK2 (Homo sapiens, UniProt Q9Y3S1): 114%
MAPK12 (Homo sapiens, UniProt P53778): 93.6%
PRKG1 (Homo sapiens, UniProt Q13976): 92.7%
EPHA5 (Homo sapiens, UniProt P54756): 106%
CSNK1A1 (Homo sapiens, UniProt P48729): 125%
MAPK13 (Homo sapiens, UniProt O15264): 102%
PLK2 (Homo sapiens, UniProt Q9NYY3): 97.5%
KIT (Homo sapiens, UniProt P10721): 86.4%
PRKCI (Homo sapiens, UniProt P41743): 96.4%
MAP4K2 (Homo sapiens, UniProt Q12851): 74.8%
MAP2K6 (Homo sapiens, UniProt P52564): 94.5%
PRKCD (Homo sapiens, UniProt Q05655): 94.7%
AKT3 (Homo sapiens, UniProt Q9Y243): 103%
STK38 (Homo sapiens, UniProt Q15208): 98.5%
Cyclin-dependent kinase 9, with cyclin T1 (CDK9, Homo sapiens, UniProt P50750): 106%

A few entries again (study 1):
CCCCCCCCCCCCCCCC[N+](C)(C)Cc1ccccc1: -10%
Cn1cc(C(=O)[C@@H]2CCc3nc[nH]c3C2)c2ccccc21: -10%
C[C@@H](O)[C@H]1C(=O)N2C(C(=O)O)=C([C@H]3CCCO3)S[C@H]12: -8%
O=C(O)c1cn[nH]c1: -34%
O=C(O[C@@H]1Cc2c(O)cc(O)cc2O[C@@H]1c1ccc(O)c(O)c1)c1cc(O)c(O)c(O)c1: -37%
COc1ccc(-c2cc(=O)c3c(O)c(OC)c(OC)c(OC)c3o2)cc1OC: -24%
C[C@H]1[C@H](C)CC[C@]2(C(=O)O)CC[C@]3(C)C(=CC[C@@H]4[C@@]5(C)C[C@@H](O)[C@H](O)[C@@](C)(CO)[C@@H]5CC[C@]43C)[C@H]12: -10%
CC(C)=CCc1cc2c(cc1O)oc(=O)c1c3ccc(O)cc3oc21: 1%
Cc1cccc(C)c1OCC(=O)N[C@@H](Cc1ccccc1)[C@@H](O)C[C@H](Cc1ccccc1)NC(=O)[C@H](C(C)C)N1CCCNC1=O: -4%
